# Measured values collected from several papers.
# Every numbered part comes from another study and shows a few of its results, in no order.

# Study 1
# Target: Interferon regulatory factor 5, full length, phosphomimetic (IRF5, Homo sapiens, UniProt Q13568-2, residues 1-514, K96S/S451D/S453D/S456D/S462D)
# Technique: protein-binding microarray
# Molecule type: double-stranded DNA, one strand shown
# Sample: in vitro
# Concentration: 250 nM
# Setting: 60-bp whole probe
# With: salmon DNA 0.4 mg/ml
# Relative to: random background probes
# Direction: higher = stronger binding
# All sequences stand within: GCCTAGCAC … GTCTTGATTCGCTTGACGCTGCTG
Sequence,log fluorescence
TTAGGTTCCCTATTCCTTTAGTGCTAG,0.198 z-score
AGGTGGGAGGGGACAGTGGTGTGCTAG,0.00739 z-score
TGGCACCTCTAGACTCTAAATGTGCTA,-0.343 z-score
TTAGATCACAGTCTCGATTAGTGCTAG,0.616 z-score
TTAGGTATCCTTATTCTTTAGTGCTAG,0.38 z-score
GTCGGTTTCGGGACTGGGGACGTGCTA,6.21 z-score
GACGGTTTCCTACTGCTGGCGTGCTAG,0.501 z-score
TCAGTTTCCCCTATTTAACTGTGCTAG,2.28 z-score
TCAAAACTCGTATGTGACACTGTGCTA,0.302 z-score
TATGTTGTCCAGGCTGGTCTCGTGCTA,-0.159 z-score
TTGTATTTGTCCCTATTTAAGTGCTAG,0.905 z-score
GACGATATCGGTACTGGAGACGTGCTA,3.09 z-score

# Study 2
# Target: Prothrombin, mature alpha-thrombin (F2, Homo sapiens, UniProt P00734)
# Technique: aptamer microarray, sandwich
# Molecule type: DNA with 2'F-ANA
# Sample: in vitro
# Concentration: 200 nM
# Setting: whole 15-mer aptamer, many near background
# With: Cy3 exosite-II aptamer, 400 nM
# Direction: higher = stronger binding
# Sequence: GGTTGGTGTGGTTGG
Modification,mean fluorescence intensity
2'F-ANA at 4 9 10 12 13 14 15,63.6 a.u.
2'F-ANA at 1 6 7 8 12 15,454 a.u.
2'F-ANA at 2 6 8 9 13 14,110 a.u.
2'F-ANA at 2 5 9 12 13 14,44.7 a.u.
2'F-ANA at 2 3 4 6 10 11 12 15,259 a.u.
2'F-ANA at 2 3 4 5 6 7 8 9 10 13 15,56.8 a.u.
2'F-ANA at 1 2 6 8 10 11 12 13,59 a.u.
2'F-ANA at 2 4 6 8 9 11 14,75.6 a.u.
2'F-ANA at 2 3 6 7 13 14 15,355 a.u.
2'F-ANA at 8 9 10 11 15,162 a.u.

# Study 3
# Target: Sal-like protein 4, full length isoform A (SALL4, Homo sapiens, UniProt Q9UJQ4, residues 1-1053)
# Chain of UniProt Q9UJQ4 (whole entry, looked up): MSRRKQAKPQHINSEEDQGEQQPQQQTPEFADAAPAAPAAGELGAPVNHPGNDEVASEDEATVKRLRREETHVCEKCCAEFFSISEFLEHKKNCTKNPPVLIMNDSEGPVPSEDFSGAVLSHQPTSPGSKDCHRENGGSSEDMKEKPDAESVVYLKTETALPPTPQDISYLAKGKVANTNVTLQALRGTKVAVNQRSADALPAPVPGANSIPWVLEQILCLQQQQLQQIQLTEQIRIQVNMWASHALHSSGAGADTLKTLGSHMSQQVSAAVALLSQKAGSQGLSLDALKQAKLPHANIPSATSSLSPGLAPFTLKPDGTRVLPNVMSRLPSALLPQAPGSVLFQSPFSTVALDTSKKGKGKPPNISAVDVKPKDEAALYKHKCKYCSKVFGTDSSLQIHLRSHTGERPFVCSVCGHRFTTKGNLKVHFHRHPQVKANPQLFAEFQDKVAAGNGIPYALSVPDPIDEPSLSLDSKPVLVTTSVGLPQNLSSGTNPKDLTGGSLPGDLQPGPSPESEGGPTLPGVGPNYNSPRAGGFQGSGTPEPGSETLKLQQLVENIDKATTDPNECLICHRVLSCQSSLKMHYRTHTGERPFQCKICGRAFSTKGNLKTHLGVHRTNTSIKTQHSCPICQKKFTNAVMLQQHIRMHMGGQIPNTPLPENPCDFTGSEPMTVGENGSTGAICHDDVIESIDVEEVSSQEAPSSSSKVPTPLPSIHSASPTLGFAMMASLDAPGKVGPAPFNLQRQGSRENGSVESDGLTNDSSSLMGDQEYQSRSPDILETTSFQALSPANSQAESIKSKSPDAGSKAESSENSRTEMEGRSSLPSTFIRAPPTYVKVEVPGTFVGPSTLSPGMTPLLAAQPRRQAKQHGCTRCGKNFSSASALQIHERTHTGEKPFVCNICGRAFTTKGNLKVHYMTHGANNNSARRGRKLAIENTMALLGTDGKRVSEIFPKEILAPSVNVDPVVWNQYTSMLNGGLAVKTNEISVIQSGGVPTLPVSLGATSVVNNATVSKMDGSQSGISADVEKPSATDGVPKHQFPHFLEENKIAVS
# Technique: universal PBM
# Molecule type: double-stranded DNA, one strand shown
# Sample: in vitro
# Concentration: 600 nM
# Setting: 8-mer, flanks averaged, mean of replicates
# Direction: higher = stronger binding
Sequence,E-score
CAGTGGGC,-0.196
AGGTCTAG,-0.0585
ATAGACTC,0.114
AAAGAGGA,-0.0748
CCATGATA,0.184
AAACGGTG,-0.000905
ACTTTGTC,0.0615
CCCCAGTC,-0.23
AACACGAC,-0.0446
AGGTCGGA,-0.176

# Single results of other studies
Molecule,target,assay,test system,conditions,scale,endpoint,result
"PhoQ, residues 284 288 289 292 302 303 AGCYAI","PhoP, residues 12 14 15 18 19 NQCAL (Escherichia coli, UniProt P23836)","Sort-seq, item: YFP reporter",E. coli,"PhoQ-PhoP variant library, with: 10 µM Mg2+","relative to: high Mg2+ state, higher = stronger signaling",fold induction,23.6

# For quick reference, copied from above (study 2):
Modification,mean fluorescence intensity
2'F-ANA at 2 4 6 8 9 11 14,75.6 a.u.
2'F-ANA at 2 3 6 7 13 14 15,355 a.u.
2'F-ANA at 8 9 10 11 15,162 a.u.
